Published values pooled from the literature.
Protocols differ between the studies behind these lines.

CO[C@H]1C[C@@H]2CC[C@@H](C)[C@@](O)(O2)C(=O)C(=O)N2CCCC[C@H]2C(=O)O[C@H]([C@H](C)C[C@@H]2CC[C@@H](OC(=O)NCCOCCOCCOCCOCCOCCOCCOCCOCCC(=O)N3CCc4cc(Cn5nc(-c6ccc7oc(N)nc7c6)c6c(N)ncnc65)ccc4C3)[C@H](OC)C2)C[C@@H](O)[C@H](C)/C=C(\C)[C@@H](O)[C@@H](OC)C(=O)[C@H](C)C[C@H](C)/C=C/C=C/C=C/1C  patients with AE (measured: AEs leading to dose reduction; patients with advanced solid tumours; intravenous, dose not given, all patients, weekly): 11%
C=CCNc1c(O)cc2c(O)c1C[C@@H](C)C[C@H](OC)[C@H](O)[C@@H](C)/C=C(\C)[C@H](OC(N)=O)[C@@H](OC)/C=C\C=C(/C)C(=O)N2  patients with vomiting TEAE (unresectable or metastatic STS, GIST, other; intravenous, 90 mg/m^2): 67%
CN1CC[C@@H](c2c(O)cc(O)c3c(=O)cc(-c4ccc(C(F)(F)F)cc4Cl)oc23)[C@@H]1CO  patients with adverse event (measured: Lymphopenia; relapsed AML; oral, 200 mg, grade 3-4, intermittent dosing): 10%
O=C1Nc2cc3[nH]nc(-c4ccncc4)c3cc2CN1Cc1ccccc1  patients with back pain (CTCAE v4.03; advanced solid tumour patients; intravenous, 3.6 mg/kg, schedules 1/2): 67%
COc1c(OCCCN2CCOCC2)ccc2c1N=C(NC(=O)c1cnc(N)nc1)N1CCN=C21  patients with adverse event (measured: Anaemia; patients with advanced malignancies; intravenous, dose not given, any grade, all cohorts, added: gemcitabine): 64%
C[C@@H]1OC(=O)NN=C1c1ccc(-c2ccc(F)cc2)c(C(F)(F)F)c1  patients with blood ALP increased (patients, phase I trial; oral, dose not given, all arms, any grade TEAE): 20%
CCN(CCO)CCCC(C)Nc1ccnc2cc(Cl)ccc12 (stereo not shown)  patients with adverse event (measured: Fever grade 1; newly diagnosed glioblastoma patients; oral, 400 mg/dose, with radiotherapy and temozolomide): 14%
CC(=O)c1c(C)c2cnc(Nc3ccc(C4CCN(CCS(C)(=O)=O)CC4)cn3)nc2n(C2CCCC2)c1=O  patients with AST increased (HR+/HER2- advanced breast cancer patients; oral, 100 mg twice daily, grade 3/4,, monotherapy): 0%
Nc1nc2cc(-c3ccc4ncc(C(=O)N5CCOCC5)n4c3)ccc2o1  patients with adverse event (measured: Hypokalemia; advanced solid tumour patients; dose not given, all grades, all doses): 20%
N[C@@H]1c2ccccc2OC12CCN(c1cnc3c(N4CCCc5ncccc54)n[nH]c3n1)CC2  patients with any TEAE (advanced solid tumour patients; oral, 40 mg once daily): 100%

Excerpt of the above:
CN1CC[C@@H](c2c(O)cc(O)c3c(=O)cc(-c4ccc(C(F)(F)F)cc4Cl)oc23)[C@@H]1CO  patients with adverse event (measured: Lymphopenia; relapsed AML; oral, 200 mg, grade 3-4, intermittent dosing): 10%
